Experimental data of several laboratories.
Protocols differ between the studies behind these lines. Several values in a cell are separate wells, animals, samples, runs or records. ± gives the spread as reported.

test | test system | conditions | plasma concentration | Structure (SMILES)
– | CD-1 mouse, male | oral, 10 mg/kg parent drug, 4 h | 42.7 ± 24.2 ng/mL | O=C1CCC(N2Cc3cc(C(=O)O)c(F)cc3C2=O)C(=O)N1 (centres unmarked)
UHPLC-MS/MS | mouse, plasma | oral, 50 mg/kg of saikosaponin a, 24 h | 0 ng/mL | CC1(C)CC[C@@]2(CO)C(=C3C=C[C@@H]4[C@@]5(C)CC[C@H](O)[C@@](C)(CO)[C@@H]5CC[C@@]4(C)[C@]3(C)C[C@@H]2O)C1
LC-MS/MS | female C57BL/6 mouse, plasma | oral, 10 mg/kg, 4 h | not detected | CCC(=O)N(C)c1ccc(Cl)c(Cl)c1
– | mouse, TMD8 tumour-bearing, plasma | 7.5 mg/kg twice daily, 8 h | 2.5 ng/mL | CC#CC(=O)N1CCC[C@H]1c1nc(-c2ccc(C(=O)Nc3ccccn3)cc2)c2c(N)nccn12
– | mouse BALB/c female, plasma | intraperitoneal, 50 mg/kg, 0.5 h | 2170 ng/mL and 2570 ng/mL and 2840 ng/mL and 2200 ng/mL | [2H]C([2H])(N)C([2H])([2H])NC(=O)c1cc(C2CC2)nc2c1cnn2C(C)C
– | mouse, CD-1, male, plasma | oral, 30 mg/kg, 1 h | 221 nM | Cc1ccc(OCC(=O)N(Cc2cccs2)c2ccn[nH]2)cc1
– | mouse BALB/c female, plasma | intraperitoneal, 30 mg/kg, 0.25 h | 1030 ng/mL and 1270 ng/mL and 1090 ng/mL and 1080 ng/mL | CC(C)n1ncc2c(C(=O)NC[C@@H](C)N)cc(C3CC3)nc21
– | ICR mouse, male | oral, 5 mg/kg, 0.25 h | 29.7 ng/mL | O=C1C2CC3CC1CC(C(=O)N1CCN(c4ccc([N+](=O)[O-])c5ncccc45)CC1)(C3)C2
– | ICR mouse, plasma | oral, 50 mg/kg, 1.00 h, mean, one outlier excluded | 88400 ng/mL | Cc1nn(-c2nc3c(F)cc(F)cc3s2)c(O)c1C(c1ccc(C(F)(F)F)cc1)c1c(C)nn(-c2nc3c(F)cc(F)cc3s2)c1O
– | male BALB/c mouse, plasma | intraperitoneal, 200 mg/kg, 0.5 h | 93500 ng/mL | C=CC(=O)N1CCCC(n2c(=O)c3ncccc3n(Cc3ccc(Oc4ccccc4)cc3)c2=O)C1 (centres unmarked)
– | C57BL/6 mouse, male, plasma | intravenous, 5 mg/kg, 15 min | 14700 ng/mL | Cc1ncsc1-c1ccc(CNC(=O)[C@@H]2C[C@@H](O)CN2C(=O)[C@@H](NC(=O)COCC(C)(COCCOCCOCCNC(=O)C[C@@H]2N=C(c3ccc(Cl)cc3)c3c(sc(C)c3C)-n3c(C)nnc32)COCCOCCOCCNC(=O)C[C@@H]2N=C(c3ccc(Cl)cc3)c3c(sc(C)c3C)-n3c(C)nnc32)C(C)(C)C)cc1

Some of these lines once more:
test | test system | conditions | plasma concentration | Structure (SMILES)
– | ICR mouse, plasma | oral, 50 mg/kg, 1.00 h, mean, one outlier excluded | 88400 ng/mL | Cc1nn(-c2nc3c(F)cc(F)cc3s2)c(O)c1C(c1ccc(C(F)(F)F)cc1)c1c(C)nn(-c2nc3c(F)cc(F)cc3s2)c1O
